Experimental data gathered from unrelated publications.
Each numbered part is a random draw from the data of one study; scales do not carry over between parts.
Sequence of UniProt Q9WVH4 (31-263, looked up): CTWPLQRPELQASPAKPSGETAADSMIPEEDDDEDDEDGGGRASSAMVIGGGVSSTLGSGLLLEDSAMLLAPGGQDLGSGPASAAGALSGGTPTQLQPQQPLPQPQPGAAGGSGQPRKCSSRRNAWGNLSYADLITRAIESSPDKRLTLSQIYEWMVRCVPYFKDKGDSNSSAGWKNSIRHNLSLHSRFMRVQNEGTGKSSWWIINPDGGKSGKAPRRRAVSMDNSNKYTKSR

Sample 1 — technique: universal PBM; molecule type: double-stranded DNA, one strand shown; medium: in vitro; concentration: 600 nM; reading: higher = stronger binding
Target: Sal-like protein 4, full length isoform A (SALL4, Homo sapiens, UniProt Q9UJQ4, residues 1-1053)
Sequence of UniProt Q9UJQ4 (whole entry, looked up): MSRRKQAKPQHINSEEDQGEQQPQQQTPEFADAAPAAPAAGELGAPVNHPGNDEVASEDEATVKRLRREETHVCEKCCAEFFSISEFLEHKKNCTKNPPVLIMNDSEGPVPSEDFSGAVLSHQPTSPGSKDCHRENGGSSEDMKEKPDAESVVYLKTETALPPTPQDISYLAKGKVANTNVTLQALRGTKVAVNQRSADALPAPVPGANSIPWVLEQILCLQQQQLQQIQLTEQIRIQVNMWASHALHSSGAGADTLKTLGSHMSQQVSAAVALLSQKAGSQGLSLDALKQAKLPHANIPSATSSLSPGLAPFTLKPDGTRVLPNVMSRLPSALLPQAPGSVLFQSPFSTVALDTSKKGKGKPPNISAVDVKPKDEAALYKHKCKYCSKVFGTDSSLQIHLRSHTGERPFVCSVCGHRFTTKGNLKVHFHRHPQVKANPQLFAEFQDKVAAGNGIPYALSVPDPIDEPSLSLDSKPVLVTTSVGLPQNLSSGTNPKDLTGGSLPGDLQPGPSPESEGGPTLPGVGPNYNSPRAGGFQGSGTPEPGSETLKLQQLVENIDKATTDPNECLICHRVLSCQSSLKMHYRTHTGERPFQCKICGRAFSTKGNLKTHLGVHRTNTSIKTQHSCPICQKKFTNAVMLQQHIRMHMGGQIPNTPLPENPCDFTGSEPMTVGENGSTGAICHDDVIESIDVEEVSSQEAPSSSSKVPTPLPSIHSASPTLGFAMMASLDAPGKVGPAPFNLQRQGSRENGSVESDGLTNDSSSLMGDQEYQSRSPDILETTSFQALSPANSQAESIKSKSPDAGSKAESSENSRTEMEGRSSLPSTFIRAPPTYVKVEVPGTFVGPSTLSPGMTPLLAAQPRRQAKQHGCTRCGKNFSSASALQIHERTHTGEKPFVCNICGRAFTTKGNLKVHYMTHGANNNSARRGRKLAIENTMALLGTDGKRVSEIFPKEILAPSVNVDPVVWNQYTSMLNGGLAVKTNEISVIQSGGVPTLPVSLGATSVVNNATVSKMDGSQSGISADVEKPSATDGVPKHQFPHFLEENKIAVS
Notes: 8-mer, flanks averaged, mean of replicates
`CACCATTA` gave an E-score of 0.0272.
For `ATGGACGG`, the E-score was 0.00185.
The E-score of `TATAAGGA` is reported as 0.283.
`GGACCAGA` gave an E-score of -0.259.
`GCCGGATA` gave an E-score of -0.0233.
With `CCGGTGAG` the E-score was -0.333.
For `ACGGAGCT`, the E-score was -0.243.
`ATGCAGTA` has an E-score of 0.121.

Sample 2 — effect on: enzyme activity; mode: inhibitor; concentration: 20 µM
Target: Replicase polyprotein 1ab, polymerase (rep, Severe acute respiratory syndrome coronavirus 2, UniProt P0DTD1)
The inhibition of `CC(C)C(=O)OC[C@@]1(N=[N+]=[N-])O[C@@H](n2ccc(N)nc2=O)[C@H](OC(=O)C(C)C)[C@@H]1OC(=O)C(C)C` is reported as -4.12%.
For `NS(=O)(=O)OC[C@@H]1C[C@@H](n2ccc3c(N[C@H]4CCc5ccccc54)ncnc32)C[C@@H]1O`, the inhibition was -3.44%.
With `C=C1CC[C@@H]2[C@](C)(CO)[C@H](O)CC[C@@]2(C)[C@@H]1C/C=C1/C(=O)OC[C@H]1O` the inhibition was -4.06%.
With `CC(C)c1ccc(NC(=O)Cn2cnc3c2c(=O)n(C)c(=O)n3C)cc1` the inhibition was 2.04%.
`COc1ccc(-c2cc3c(C)nc(N)nc3n([C@H]3CC[C@H](OCCO)CC3)c2=O)cn1` has an inhibition of -1.27%.
`Oc1nc(O)c2cn[nH]c2n1` has an inhibition of -3.38%.
`Nc1nc(CC(=O)Nc2ccc(CCNC[C@H](O)c3ccccc3)cc2)cs1` gave an inhibition of -0.45%.
`CCN1CCN(Cc2ccc(Nc3ncc(F)c(-c4cc(F)c5nc(C)n(C(C)C)c5c4)n3)nc2)CC1` has an inhibition of 4.21%.
`CN(C)CCNc1nc2cc(O)ccc2c2c1C(=O)c1ccccc1-2` gave an inhibition of 68.6%.
`Cc1nccn1CC1CCc2c(c3ccccc3n2C)C1=O` (centres unmarked) gave an inhibition of 24.8%.
`CCOC(=O)CN1CCN(C(=O)/C=C/c2cc(OC)c(OC)c(OC)c2)CC1` has an inhibition of -1.72%.
For `O=C(O)C(Cc1ccccc1)CN(O)C(=O)Cc1ccccc1` (centres unmarked), the inhibition was 2.46%.
`OC1(c2ccc(Cl)c(C(F)(F)F)c2)CCN(CCCC(c2ccc(F)cc2)c2ccc(F)cc2)CC1` has an inhibition of -1.36%.
The inhibition of `COCC(O)Cn1ccnc1[N+](=O)[O-]` (centres unmarked) is reported as -2.56%.
`CC1(C)OC(=O)C(OCC2CC2)=C1c1ccc(S(C)(=O)=O)cc1` gave an inhibition of -7.28%.
`O=C(c1cncc(Br)c1)N1CCC(N2CCCC2)CC1` gave an inhibition of -4.85%.
`CC(=O)O[C@]1(C(C)=O)CC[C@H]2[C@@H]3C=C(Cl)C4=CC(=O)CC[C@]4(C)[C@H]3CC[C@@]21C` has an inhibition of -3.06%.
`Cc1c(-c2cnccn2)ssc1=S` gave an inhibition of -2.17%.
For `O=C(O)CCCCN(CCc1ccccc1OCc1ccc(CCc2ccccc2)cc1)Cc1ccc(C(=O)O)cc1`, the inhibition was -4.45%.
For `CN(CCc1ccc(Cl)c(Cl)c1)CCN1CCCC1`, the inhibition was -3.73%.
With `Cc1ccccc1NC(=N)Nc1ccccc1C` the inhibition was -8.33%.
`NCCc1cc(O)c(O)cc1O` has an inhibition of 34.9%.
`COc1cccc(CCc2ccccc2OCC[C@@H]2C[C@@H](O)CN2C)c1` gave an inhibition of 2.39%.
For `C1CCC(C(CC2CCCCN2)C2CCCCC2)CC1` (centres unmarked), the inhibition was -0.67%.
The inhibition of `CCCCCCCCCCCCCCCCCCCCCCCCCCCCO` is reported as -5.25%.

Sample 3 — effect on: enzyme activity; mode: inhibitor; concentration: 20 µM; notes: hit confirmation, no DTT
Target: Replicase polyprotein 1ab, main protease (rep, Severe acute respiratory syndrome coronavirus 2, UniProt P0DTD1)
For `O=C1OC2(c3ccccc31)c1cc(Br)c(O)c(Br)c1Oc1c2cc(Br)c(O)c1Br`, the inhibition was 97.7%.
`N[C@@H](C(=O)N[C@@H]1C(=O)N2C(C(=O)O)=C(Cl)CS[C@H]12)c1ccccc1` gave an inhibition of 74.4%.
`O=C1c2c(O)cc(O)cc2O[C@H](c2cc(O)c(O)c(O)c2)[C@H]1O` has an inhibition of 99.7%.
`COc1cc(C[C@@H]2NCCc3cc(O)c(O)cc32)cc(OC)c1OC` gave an inhibition of 55.4%.

Sample 4 — cell line: HEK-293T; effect on: pseudovirus infection; technique: FDA-approved drug library screen; organism: VSV pseudotyped with SARS-CoV-2 spike; concentration: 10 µM; time: 16 h; relative to: vehicle-treated
The GFP-positive cells of `COc1ccc(C(CN(C)C)C2(O)CCCCC2)cc1` (centres unmarked) is reported as 83.7%.
`COc1ccc2nc(SCc3ncc(C)c(OC)c3C)[nH]c2c1` has a GFP-positive cells of 91.2%.
With `N[C@@H](C(=O)N[C@@H]1C(=O)N2C(C(=O)O)=C(Cl)CS[C@H]12)c1ccccc1` the GFP-positive cells was 82.2%.
`CN(Cc1ccc(C(C)(C)C)cc1)Cc1cccc2ccccc12` gave a GFP-positive cells of 80.6%.

Sample 5 — technique: RNA Bind-n-Seq; molecule type: RNA; medium: in vitro; concentration: 200 nM; notes: whole 134-nt RNA, ends assumed; together with: 150 mM LiCl; relative to: input library; reading: higher = stronger binding; each molecule: 7-deaza-guanosine replaces G
Target: Fragile X messenger ribonucleoprotein 1, C-terminal low-complexity region (Fmr1, Mus musculus, UniProt P35922)
`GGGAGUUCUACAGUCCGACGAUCUGGCCCUGGUGGCAUGCGGGGAGGAAGAGGUGGCCUCAUGGAUCGUGGUGGUCCCGGUUGAAUGUUCAGAGGUGGCCGUGGUGGAGACAGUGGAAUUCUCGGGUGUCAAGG` gave a log2 enrichment of -0.551.
The log2 enrichment of `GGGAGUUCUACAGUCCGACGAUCCAAGUCCUGUGCUACACAUCGUAUGUACCGAAUCGGUUUUUGGUGGUUUUUUUGGAAAGUAUUAUGUUACGCCGUUCGGAUCUGCACUUCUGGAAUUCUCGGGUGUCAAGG` is reported as -1.2.
`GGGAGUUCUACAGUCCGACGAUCAGUCCUGUGCUACACAUCGUAUGUACCGAAUCAAAUUUUUUUAAAUUUAAACCCAAAAAAGUAUUAUGUUACGCCGUUCGGAUCUGCACUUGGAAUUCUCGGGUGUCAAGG` has a log2 enrichment of -1.09.
The log2 enrichment of `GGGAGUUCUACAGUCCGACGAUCUCAAGUCCUGUGCUACACAUCGUAUGUACCGAAUCGGGGCCGGGCCGGGGCCGGAAAGUAUUAUGUUACGCCGUUCGGAUCUGCACUUCCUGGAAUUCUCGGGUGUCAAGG` is reported as 0.49.
`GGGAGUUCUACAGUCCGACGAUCGUCCUGUGCUACACAUCGUAUGUACCGAAUCGGGGUUUUUGGGGUUUUUGGGUUUUUGGAAAGUAUUAUGUUACGCCGUUCGGAUCUGCAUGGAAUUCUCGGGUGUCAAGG` has a log2 enrichment of -0.87.
`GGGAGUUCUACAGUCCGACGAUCUCCUGUGCUACACAUCGUAUGUACCGAAUCAAACCCAAACCCCCCCAAACCCCCCCAAAAAAGUAUUAUGUUACGCCGUUCGGAUCUGCAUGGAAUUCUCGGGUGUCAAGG` gave a log2 enrichment of 0.953.
With `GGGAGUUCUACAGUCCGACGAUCCCUGUGCUACACAUCGUAUGUACCGAAUCGGGGUUUUUUUGGGGUUUUUGGGGUUUGGGGAAAGUAUUAUGUUACGCCGUUCGGAUCUGCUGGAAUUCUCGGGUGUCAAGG` the log2 enrichment was -0.898.
`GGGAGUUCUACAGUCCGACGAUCUCCUCAAGUCCUGUGCUACACAUCGUAUGUACCGAAUCGGCGGCGGGCGGGAAAGUAUUAUGUUACGCCGUUCGGAUCUGCACUUCCAGCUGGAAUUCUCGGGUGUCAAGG` has a log2 enrichment of 1.16.

Mixed results
`GAGGCCATGCGAACAACGCCTCCTGGCGTTGTTCGCATGGCCTCACACTC` has a median fluorescence of 4640 a.u. (FOXO3, forkhead domain (mouse, UniProt Q9WVH4, residues 31-263); protein-binding microarray; hairpin DNA, in vitro; not given, whole hairpin DNA, median over replicate spots; relative to: not given, higher = stronger binding).

For quick reference, copied from above (sample 1):
`GCCGGATA` gave an E-score of -0.0233.
With `CCGGTGAG` the E-score was -0.333.
For `ACGGAGCT`, the E-score was -0.243.
`ATGCAGTA` has an E-score of 0.121.
